Assay results gathered from unrelated publications.
Each line is one published result; not all experiments were run side by side. ± gives the spread as reported. Converted amounts (≈) assume the structure as drawn.

CN(C)c1nc(NCc2ccc3ccccc3c2)c(/N=N/c2ccc(Cl)cc2)c(N(C)C)n1  mortality (Plutella xylostella; leaf dipping; 50 mg/L, 96 h): 80 ± 10%
O=C(/C=C/c1cccc(C(F)(F)F)c1)c1ccc(NS(=O)(=O)c2ccc(C(F)(F)F)cc2)cc1  LC50 (Danio rerio; wild type, embryos; immersion, up to 120 hpf, exposure from 5 hpf): 12.9 µM
CCN1CCN(Cc2ccc(CNc3nc(N(C)C)nc(N(C)C)c3/N=N/c3ccc(Cl)cc3)cc2)CC1  mortality (Plutella xylostella; leaf dipping; 50 mg/L, 96 h): 73.3 ± 5.8%
C[C@H]1[C@@H](OCc2cn(-c3cc4ccc(O)cc4oc3=O)nn2)O[C@@H]2O[C@@]3(C)CC[C@H]4[C@H](C)CC[C@@H]1[C@@]24OO3  uptake into uninfected RBC (Plasmodium berghei; flow cytometry; infected mouse blood; 3 µM, 1 h): 3.8 ± 0.3 % stained cells
O=C(/C=C/c1ccc(C(F)(F)F)cc1)c1ccc(NS(=O)(=O)c2ccc(C(F)(F)F)cc2)cc1  LC50 (Danio rerio; wild type, embryos; immersion, up to 120 hpf, exposure from 5 hpf): 11.7 µM
CC[C@H](C)[C@H](NC(=O)[C@H](CCCCN)NC(=O)[C@H](CCCCN)NC(=O)[C@H](Cc1ccccc1)NC(=O)[C@H](Cc1ccccc1)NC(=O)[C@H](CCCCN)NC(=O)[C@H](CCCCN)NC(=O)[C@H](Cc1ccccc1)NC(=O)[C@H](CCCNC(=N)N)NC(=O)[C@@H](N)CCCCN)C(=O)N[C@@H](CCCCN)C(=O)N[C@@H](CCCCN)C(=O)N[C@@H](CO)C(=O)N[C@H](C(=O)N[C@@H](CCCCN)C(=O)N[C@@H](CCCCN)C(=O)N[C@@H](CCCNC(=N)N)C(=O)N[C@H](C(=O)N[C@@H](CCCCN)C(=O)N[C@@H](CCCCN)C(=O)N[C@@H](CC(C)C)C(=O)N[C@@H](Cc1ccccc1)C(=O)N[C@@H](CCCCN)C(=O)N[C@@H](CCCCN)C(=O)N1CCC[C@H]1C(=O)N[C@@H](CCCNC(=N)N)C(=O)N[C@H](C(=O)N[C@H](C(=O)N1CCC[C@H]1C(=O)N[C@H](C(=O)N[C@@H](CO)C(=O)N[C@H](C(=O)N1CCC[C@H]1C(=O)N[C@@H](Cc1ccccc1)C(=O)O)[C@@H](C)CC)[C@@H](C)CC)[C@@H](C)CC)C(C)C)C(C)C)C(C)C  MIC (Pseudomonas aeruginosa; P1, mouse serum; 0 h, 37 °C): 4 µg/mL (≈ 0.948 µM)
Cc1nc2cccc(OCC(C)(C)C(=O)NC(C)C)c2c(N)c1C(=O)[O-].[Na+]  revertant colonies (Salmonella typhimurium; reverse mutation, plate incorporation; TA98; 0.13 mg/plate, without S9): 26 ± 3 colonies/plate
CC(C)C[C@H](NC(=O)[C@H](CC(C)C)NC(=O)[C@H](CCCCN)NC(=O)[C@H](Cc1ccccc1)NC(=O)[C@@H](NC(=O)[C@H](CCCNC(=N)N)NC(=O)[C@@H](N)CCCCN)C(C)C)C(=O)N[C@@H](CCCCN)C(=O)N[C@@H](CCCNC(=N)N)C(=O)N[C@@H](Cc1ccc(O)cc1)C(=O)N[C@@H](Cc1c[nH]c2ccccc12)C(=O)N[C@@H](CCCNC(=N)N)C(=O)N[C@@H](CCC(N)=O)C(=O)N[C@@H](CC(C)C)C(=O)N[C@@H](CCCCN)C(=O)N[C@@H](CCCCN)C(=O)N1CCC[C@H]1C(=O)N[C@H](C(=O)N[C@@H](CCCNC(=N)N)C(=O)NCCOCCOCC(=O)O)C(C)C  MIC increase (Pseudomonas aeruginosa; 6 h, 37 °C, serum stability, with: 50% human serum; reference: without serum): 8.5 fold

Repeated from above:
C[C@H]1[C@@H](OCc2cn(-c3cc4ccc(O)cc4oc3=O)nn2)O[C@@H]2O[C@@]3(C)CC[C@H]4[C@H](C)CC[C@@H]1[C@@]24OO3  uptake into uninfected RBC (Plasmodium berghei; flow cytometry; infected mouse blood; 3 µM, 1 h): 3.8 ± 0.3 % stained cells
